Assay results of several laboratories.
Protocols differ between the studies behind these lines. ± marks the error that the study gave.
Methyl-accepting chemotaxis protein Tlp3 sensing domain: Methyl-accepting chemotaxis protein Tlp3, sensing domain (Campylobacter jejuni, UniProt Q0P864)
BCL2L1: Bcl-2-like protein 1 (BCL2L1, Homo sapiens, UniProt Q07817)
Ribonucleoside-diphosphate reductase large subunit: Ribonucleoside-diphosphate reductase large subunit (Homo sapiens, UniProt P23921)
B1: calmodulin N-terminal domain; chain AEQLTEEQIAEFKEAFALFDKDGDGTITTKELGTVMRSLGQNPTEAELQDMINEVDADGNGTIDFPEFLSLMARK

| Molecule | target | test | system | conditions | scale | Kd [µM] |
| --- | --- | --- | --- | --- | --- | --- |
| CC1=C(/C=C/C(C)=C\C=C\C(C)=C\C=O)C(C)(C)CCC1 | Retinol-binding protein 2 (Rbp2, Rattus norvegicus, UniProt P06768) | binding, fluorescence titration | – | pH 7.4, 25 °C | – | 0.005 ± 0.003 |
| CC(=O)N[C@@H](CC(C)C)C(=O)N[C@@H](CCCCN)C(=O)N[C@@H](CCCCN)C(=O)N[C@@H](CC(C)C)C(=O)N[C@@H](CC(C)C)C(=O)N[C@@H](CCCCN)C(=O)N[C@@H](CC(C)C)C(=O)N[C@@H](Cc1c[nH]c2ccccc12)C(=O)N[C@@H](CCCCN)C(=O)N[C@@H](CCCCN)C(=O)N[C@@H](CC(C)C)C(=O)N[C@@H](CC(C)C)C(=O)N[C@@H](CCCCN)C(=O)N[C@@H](CC(C)C)C(=O)N[C@@H](C)C(=O)NCC(N)=O | HIV-1 TAR hairpin RNA | competitive fluorescence anisotropy | – | pH 7.4, 20 °C, with: rhodamine-Rev peptide | – | 0.082 ± 0.01 |
| Cc1occc(=S)c1O | Carbonic anhydrase 2, Co(II)-substituted (CA2, Bos taurus, UniProt P00921) | binding, UV-vis titration | – | pH 7.5, deprotonated form | – | 480 |
| Nc1nc2ncc(CNc3ccc(C(=O)N[C@@H](CCC(=O)O)C(=O)O)cc3)nc2c(=O)[nH]1 | Eif4e (Mus musculus, UniProt P63073) | cap analogue binding, pyrene fluorescence competition | – | 20 °C | – | > 10 |
| Nc1ncnc2c1ncn2[C@H]1C[C@H](O)[C@@H](COP(=O)(O)OP(=O)(O)OP(=O)(O)O)O1 | POLK (Homo sapiens, UniProt Q9UBT6) | nucleotide incorporation, substrate | – | pH 8.0, 37 °C, opposite undamaged dT | – | 8 ± 1 |
| N=C(N)NCCC[C@H](NC(=O)c1ccc2c(c1)C(=O)OC21c2ccc(O)cc2Oc2cc(O)ccc21)C(=O)N[C@@H](CO)C(=O)N[C@@H](CCCNC(=N)N)C(=O)N[C@@H](CO)C(=O)N[C@@H](CCCNC(=N)N)C(=O)N[C@@H](CO)C(=O)N[C@@H](CCCNC(=N)N)C(=O)N[C@@H](CO)C(=O)N[C@@H](CCCNC(=N)N)C(=O)N[C@@H](CO)C(=O)N[C@@H](CCCNC(=N)N)C(=O)N[C@@H](CO)C(=O)N[C@@H](CCCNC(=N)N)C(=O)N[C@@H](CO)C(=O)N[C@@H](CCCNC(=N)N)C(=O)N[C@@H](CO)C(=O)N[C@@H](CCCNC(=N)N)C(=O)N[C@@H](CO)C(=O)N[C@@H](CCCNC(=N)N)C(=O)N[C@@H](CO)C(=O)N[C@@H](CCCNC(=N)N)C(=O)N[C@@H](CO)C(=O)N[C@@H](CCCNC(=N)N)C(=O)N[C@@H](CO)C(=O)N[C@@H](CCCNC(=N)N)C(=O)N[C@@H](CO)C(=O)N[C@@H](CCCNC(=N)N)C(=O)N[C@@H](CO)C(=O)N[C@@H](CCCNC(=N)N)C(=O)N[C@@H](CO)C(=O)N[C@@H](CCCNC(=N)N)C(=O)N[C@@H](CO)C(=O)O | SRPK1 ΔN | peptide binding, fluorescence | – | with: fluorescein-labelled Arg-Ser peptide | – | 0.16 ± 0.025 |
| CC(C)[C@H](N)C(=O)O | Methyl-accepting chemotaxis protein Tlp3 sensing domain | binding, thermal shift | – | 25 °C, zero heat capacity change, ITC enthalpy | – | 285 ± 74 |
| CC(=O)[C@H]1CC[C@H]2[C@@H]3CCC4=CC(=O)CC[C@]4(C)[C@H]3CC[C@]12C | Cytochrome P450 3A4 (CYP3A4, Homo sapiens, UniProt P08684, S18F) | – | POPC Nanodiscs | pH 7.4, 37 °C, third binding step | – | 36 |
| YAQELQRYGDET | BCL2L1 | yeast display titration | peptide | 2 h, pH 8.0, room temperature | – | 0.0052 ± 0.0005 |
| O=C1c2c(O)ccc(O)c2C(=O)c2c(NCCNCCO)ccc(NCCNCCO)c21 | HIV-1 nucleocapsid-SL3 RNA complex | binding, ESI-FTMS | – | pH 7.5 | – | 10.3 ± 1.8 |
| CC(C)C[C@H](N)C(=O)O | Methyl-accepting chemotaxis protein Tlp3 sensing domain | binding, thermal shift zero heat capacity | – | at Tm sensing domain | – | 875 ± 152 |
| VGAQLRRIADDV | BCL2L1 | yeast display titration | peptide | 2 h, pH 8.0, room temperature | – | 0.00026 ± 6e-05 |
| Cn1nc(CC(=O)Nc2cc(S(=O)(=O)Nc3cccc(Cl)c3)ccc2O)c2ccccc2c1=O | APOE (Homo sapiens, UniProt P02649, C130R/S157C) | fluorescence quenching titration | Alexa488-labelled protein, PBS | pH 7.4, 25 °C, label at position 139 | – | 9.3 ± 1.1 |
| NC(=O)c1ccc[n+]([C@@H]2O[C@H](COP(=O)([O-])OP(=O)(O)OC[C@H]3O[C@@H](n4cnc5c(N)ncnc54)[C@H](O)[C@@H]3O)[C@@H](O)[C@H]2O)c1 | AKR1C3 (Homo sapiens, UniProt P42330, K104D) | tryptophan fluorescence titration | – | pH 7.0, 25 °C | – | 410 ± 52 |
| COc1ccc(-c2ccoc2)c(/C=N/NC(=O)c2ccccc2O)c1O | Ribonucleoside-diphosphate reductase large subunit | binding, fluorescence | – | – | – | 9.3 |
| CC(C)S[C@@H]1O[C@H](CO)[C@H](O)[C@H](O)[C@H]1O | lecA (Pseudomonas aeruginosa, UniProt Q05097) | isothermal titration calorimetry | – | pH 7.5, 25 °C, with: 25 mM CaCl2 | – | 32.4 ± 2.7 |

| Molecule | target | test | system | conditions | scale | Kd [µM] |
| --- | --- | --- | --- | --- | --- | --- |
| CC(=O)N[C@@H](CC(C)C)C(=O)N[C@@H](CCCCN)C(=O)N[C@@H](CCCCN)C(=O)N[C@@H](CC(C)C)C(=O)N[C@@H](Cc1c[nH]c2ccccc12)C(=O)N[C@@H](CCCCN)C(=O)N[C@@H](CC(C)C)C(=O)N[C@@H](CC(C)C)C(=O)N[C@@H](CCCCN)C(=O)N[C@@H](CCCCN)C(=O)N[C@@H](CC(C)C)C(=O)N[C@@H](CC(C)C)C(=O)N[C@@H](CCCCN)C(=O)N[C@@H](CC(C)C)C(=O)N[C@@H](C)C(=O)NCC(N)=O | HIV-1 RRE hairpin RNA | competitive fluorescence anisotropy | – | pH 7.4, 20 °C, with: rhodamine-Rev peptide | – | 0.0062 ± 0.0005 |
| NC(=O)C1=CN([C@@H]2O[C@H](COP(=O)(O)OP(=O)(O)OC[C@H]3O[C@@H](n4cnc5c(N)ncnc54)[C@H](O)[C@@H]3O)[C@@H](O)[C@H]2O)C=CC1 | Pyrroline-5-carboxylate reductase 3 (PYCR3, Homo sapiens, UniProt Q53H96) | binding, bisubstrate kinetics | – | pH 7.5, 26 °C, equilibrium ordered bi bi, compound binds first | – | 79 ± 29 |
| O=C(NNC(=O)c1c(O)ccc2ccccc12)c1cccnc1 | Ribonucleoside-diphosphate reductase large subunit | binding, fluorescence | – | – | – | 4.1 |
| O=C(NN=Cc1ccc(C[n+]2ccccc2)cc1)c1ccc2ccc3ccc(C(=O)NN=Cc4ccc(C[n+]5ccccc5)cc4)nc3c2n1 | telomeric G4 DNA hybrid-2 | binding, fluorescence titration | 100 mM KCl buffer | pH 7.2, with: labelled G4 DNA 2 nM | – | > 10 |
| CCC[C@H](N)C(=O)O | Methyl-accepting chemotaxis protein Tlp3 (Campylobacter jejuni, UniProt Q0P864) | binding, ITC | – | melting temperature | – | 1760 ± 47 |
| COc1ccc(-c2cnc(-c3ccccc3O)s2)cc1 | Ribonucleoside-diphosphate reductase large subunit | binding, fluorescence | – | pH 8 | – | 70.2 |
| COc1ccc(OCc2ccccn2)c(C=O)c1 | Hemoglobin subunit alpha, with beta chain (HBA1, Homo sapiens, UniProt P69905) | binding, cation-exchange HPLC-UV/Vis | – | kinetic Kd from koff/kon | – | 140 |
| B1 (calmodulin N-terminal domain) | rat NaV1.2 IQ motif | FRET biosensor titration | – | pH 7.4, 22 °C, apo, no calcium | lower limit | > 100 |
| C[C@H](N)C(=O)N[C@@H](CCCNC(=N)N)C(=O)N[C@H](C(=O)N[C@@H](CCCCN)C(=O)N[C@@H](CCC(N)=O)C(=O)N[C@H](C(=O)N[C@@H](C)C(=O)N[C@@H](CCCNC(=N)N)C(=O)N[C@@H](CCCCN)C(=O)N[C@@H](CO)C(=O)N[C@H](C(=O)NCC(=O)O)[C@@H](C)O)[C@@H](C)O)[C@@H](C)O | Baculoviral IAP repeat-containing protein 5.1-A (birc5.1-a, Xenopus laevis, UniProt Q8JGN5) | ITC | – | pH 6.8, 25 °C | – | 28.7 ± 5.9 |
| VGAQFHRFANDF | BCL2L1 | yeast display titration | peptide | 2 h, pH 8.0, room temperature | – | 0.016 ± 0.004 |
| Cc1ccc(S(=O)(=O)/N=C(\Nc2ccc(Cl)cc2)NC(C)(C)C)cc1 | MDM2 (Homo sapiens, UniProt Q00987) | binding, NMR | – | – | – | > 100 |
| CC(=O)N[C@@H](CC(C)C)C(=O)N[C@@H](CCCCN)C(=O)N[C@@H](CCCCN)C(=O)N[C@@H](CC(C)C)C(=O)N[C@@H](CC(C)C)C(=O)N[C@@H](CCCCN)C(=O)N[C@@H](Cc1c[nH]c2ccccc12)C(=O)N[C@@H](CC(C)C)C(=O)N[C@@H](CCCCN)C(=O)N[C@@H](CCCCN)C(=O)N[C@@H](CC(C)C)C(=O)N[C@@H](CC(C)C)C(=O)N[C@@H](CCCCN)C(=O)N[C@@H](CC(C)C)C(=O)N[C@@H](C)C(=O)NCC(N)=O | HIV-1 TAR hairpin RNA | competitive fluorescence anisotropy | – | pH 7.4, 20 °C, with: rhodamine-Rev peptide | – | 0.021 ± 0.001 |
| Oregon Green | calcium | fluorescent indicator | – | pH 7.4, 22 °C | – | 34.2 |
| COc1ccc(-c2ccsc2)c(/C=N/NC(=O)c2ccccc2O)c1O | Ribonucleoside-diphosphate reductase large subunit | binding, fluorescence | – | – | – | 9.4 |
| CCCCCCCCCC[N+](CC)(CC)CC | Kcnma1 (Mus musculus, UniProt Q08460) | ion current, blocker, inside-out patch clamp | – | 100 mV | – | 14.5 |

A few entries again:
| Molecule | target | test | system | conditions | scale | Kd [µM] |
| --- | --- | --- | --- | --- | --- | --- |
| CC(C)C[C@H](N)C(=O)O | Methyl-accepting chemotaxis protein Tlp3 sensing domain | binding, thermal shift zero heat capacity | – | at Tm sensing domain | – | 875 ± 152 |
| VGAQLRRIADDV | BCL2L1 | yeast display titration | peptide | 2 h, pH 8.0, room temperature | – | 0.00026 ± 6e-05 |
| Cn1nc(CC(=O)Nc2cc(S(=O)(=O)Nc3cccc(Cl)c3)ccc2O)c2ccccc2c1=O | APOE (Homo sapiens, UniProt P02649, C130R/S157C) | fluorescence quenching titration | Alexa488-labelled protein, PBS | pH 7.4, 25 °C, label at position 139 | – | 9.3 ± 1.1 |
